Measurements gathered from unrelated publications.
Protocols differ between the studies behind these lines. Numbers after ± are the reported error.
ABCG2: Broad substrate specificity ATP-binding cassette transporter ABCG2 (ABCG2, Homo sapiens, UniProt Q9UNQ0)
UniProt Q9UNQ0, sequence (whole entry, looked up): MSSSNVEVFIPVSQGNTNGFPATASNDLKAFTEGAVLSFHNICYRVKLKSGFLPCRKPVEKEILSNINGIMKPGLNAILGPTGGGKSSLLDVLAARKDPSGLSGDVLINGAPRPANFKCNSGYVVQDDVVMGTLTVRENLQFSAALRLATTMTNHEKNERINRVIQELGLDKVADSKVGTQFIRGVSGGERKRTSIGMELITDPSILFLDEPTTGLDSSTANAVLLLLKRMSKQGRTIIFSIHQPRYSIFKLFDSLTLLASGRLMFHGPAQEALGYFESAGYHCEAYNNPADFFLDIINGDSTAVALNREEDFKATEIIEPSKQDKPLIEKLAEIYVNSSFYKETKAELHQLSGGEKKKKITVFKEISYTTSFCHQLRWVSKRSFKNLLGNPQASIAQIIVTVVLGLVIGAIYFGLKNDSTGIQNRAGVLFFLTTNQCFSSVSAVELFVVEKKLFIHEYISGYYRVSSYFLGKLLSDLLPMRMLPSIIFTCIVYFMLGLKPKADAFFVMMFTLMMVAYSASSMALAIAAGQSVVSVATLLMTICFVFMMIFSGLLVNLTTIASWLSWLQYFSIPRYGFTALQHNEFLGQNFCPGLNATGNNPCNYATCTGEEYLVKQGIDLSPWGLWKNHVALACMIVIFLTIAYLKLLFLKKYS
UniProt P00760, sequence (whole entry, looked up): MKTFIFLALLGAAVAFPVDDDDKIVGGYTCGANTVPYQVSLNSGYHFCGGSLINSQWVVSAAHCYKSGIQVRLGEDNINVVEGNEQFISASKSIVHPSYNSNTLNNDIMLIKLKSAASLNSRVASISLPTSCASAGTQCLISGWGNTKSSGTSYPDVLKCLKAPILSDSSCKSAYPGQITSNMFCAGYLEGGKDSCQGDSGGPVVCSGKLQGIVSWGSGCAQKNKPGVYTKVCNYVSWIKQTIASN
UniProt P11229, sequence (whole entry, unmodified, looked up): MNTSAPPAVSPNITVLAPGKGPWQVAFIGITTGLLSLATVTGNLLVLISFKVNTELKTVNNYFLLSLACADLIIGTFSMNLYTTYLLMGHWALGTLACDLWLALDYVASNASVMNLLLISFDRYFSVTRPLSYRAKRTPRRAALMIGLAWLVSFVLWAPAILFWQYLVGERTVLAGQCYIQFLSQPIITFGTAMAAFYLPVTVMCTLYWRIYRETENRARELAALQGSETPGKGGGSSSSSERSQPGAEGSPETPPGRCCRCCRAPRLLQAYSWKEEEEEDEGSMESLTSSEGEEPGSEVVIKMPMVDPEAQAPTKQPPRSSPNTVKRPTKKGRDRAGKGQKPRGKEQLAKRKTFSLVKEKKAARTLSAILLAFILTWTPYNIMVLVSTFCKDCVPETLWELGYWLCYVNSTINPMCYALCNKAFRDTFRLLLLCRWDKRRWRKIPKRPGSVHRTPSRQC

CCCC[C@H](NC(C)=O)C(=O)N[C@H]1CCC(=O)NC[C@@H](C(=O)N[C@@H](Cc2c[nH]c3ccccc23)C(N)=O)NC(=O)[C@H](CCCNC(=N)N)NC(=O)[C@@H](Cc2ccccc2)NC(=O)[C@H](Cc2c[nH]cn2)NC1=O — AUC(0-t) (CD Sprague-Dawley rat, female, plasma; subcutaneous, 1.0 mg/kg/day, day 14, truncated curve, 3 points): 712 ng·h/mL
CC(C)=CCC[C@](C)(O[C@@H]1O[C@H](CO)[C@@H](O)[C@H](O)[C@H]1O)[C@H]1CC[C@]2(C)[C@@H]1[C@H](O)C[C@@H]1[C@@]3(C)CC[C@H](O[C@@H]4O[C@H](CO)[C@@H](O)[C@H](O)[C@H]4O)C(C)(C)[C@@H]3CC[C@]12C — AUC(0-t) (LC-MS/MS; healthy female volunteers, serum; oral, 3 g red ginseng): 8.7 ± 2.61 ng·h/mL
CC(O)CCc1ccc(O)cc1 (stereo not shown) — AUC(0-t) (normal-weight male C57BL/6J mice, brain; oral, 200 mg/kg, 0 to 12 h, low-fat diet): 34.8 ± 3.8 nmol·min/g
CNCc1ccc(-c2[nH]c3cc(F)cc4c3c2CCNC4=O)cc1 — AUC(0-t) (human patients, plasma; oral, 160 mg once daily, day 1, 24 h, single dose, arithmetic mean): 3050 ng·h/mL
CCCCCCCCCCN — intrinsic clearance in vivo (Oncorhynchus mykiss; liver S9 substrate depletion; pooled rainbow trout liver S9; pH 7.8, tested individually): 21 mL/h/g liver
Cc1ccc(NC(=O)c2ccc(CN3CCN(C)CC3)cc2)cc1Nc1nccc(-c2cncc(-c3oncc3C)c2)n1 — AUC(0-t) (healthy volunteers, plasma; oral, 12.5 mg once daily, day 1, 7-day dosing, mean): 6700 ng·h/mL
CC(=O)C=Cc1ccc(O)c(O)c1 — AUC(0-t) (female C57BL/6J mice, brain; oral, 200 mg/kg, 0 to 12 h, low-fat diet): 0.101 ± 0.027 nmol·min/g
CC(C)(C)OC(=O)Nc1ccc(COc2ccccc2-c2cc(=O)n(C3CCCCC3O)cn2)cc1 (stereo not shown) — ΔpEC50 of ACh (Muscarinic acetylcholine receptor M1 (CHRM1, Homo sapiens, UniProt P11229); positive allosteric modulator, IP1 accumulation; CHO-M1 cells; 1 µM, 60 min, 37 °C, with: ACh; baseline: ACh alone, higher = stronger potentiation): 1.24 ± 0.14 log units
CO[C@H]1C[C@@H]2CC[C@@H](C)[C@@](O)(O2)C(=O)C(=O)N2CCCC[C@H]2C(=O)O[C@H]([C@H](C)C[C@@H]2CC[C@@H](O)[C@H](OC)C2)CC(=O)[C@H](C)/C=C(\C)[C@@H](O)[C@@H](OC)C(=O)[C@H](C)C[C@H](C)/C=C/C=C/C=C/1C — AUC(0-t) (NOD/SCID mice, male, blood or plasma; intraperitoneal, 0.5 mg/kg every 48 h): 4280 ± 329 ng·h/mL
CS(=O)(=O)n1cc2c(n1)CN([C@H]1CO[C@H](c3cc(F)ccc3F)[C@@H](N)C1)C2 — AUC(0-t) (male human, plasma; oral, 25 mg, single dose, fasted, healthy volunteers): 20.9 µM·h
CCCCC1(CCCC)CN(c2ccccc2)c2cc(SC)c(OCC(=O)N[C@@H](C(=O)NCC(=O)O)c3ccccc3)cc2S(=O)(=O)C1 — AUC(0-t) (human, plasma; oral, 5 mg, no breakfast): 2.73 ng·h/mL
OCCc1ccc(O)cc1 — AUC(0-t) (normal-weight male C57BL/6J mice, brain; oral, 200 mg/kg, 0 to 12 h, low-fat diet): 4.21 ± 0.2 nmol·min/g
CC(C)=CCC[C@](C)(O[C@@H]1O[C@H](CO)[C@@H](O)[C@H](O)[C@H]1O)[C@H]1CC[C@]2(C)[C@@H]1[C@H](O)C[C@@H]1[C@@]3(C)CC[C@H](O[C@@H]4O[C@H](CO)[C@@H](O)[C@H](O)[C@H]4O[C@@H]4O[C@H](CO)[C@@H](O)[C@H](O)[C@H]4O)C(C)(C)[C@@H]3CC[C@]12C — AUC(0-t) (LC-MS/MS; healthy volunteers, serum; oral, 3 g fermented red ginseng): 164 ± 77.6 ng·h/mL
NC(=O)c1cnc2[nH]ccc2c1N[C@@H]1[C@@H]2CC3C[C@H]1C[C@@](O)(C3)C2 — AUC(0-t) (healthy Caucasian men, plasma; oral, 20 mg, single dose fasted): 191 ng·h/mL
CC[C@H](C)[C@@H]1NC(=O)[C@H](Cc2ccc(O)cc2)NC(=O)[C@@H](N)CSSC[C@@H](C(=O)N2CCC[C@H]2C(=O)N[C@@H](CC(C)C)C(=O)NCC(N)=O)NC(=O)[C@H](CC(N)=O)NC(=O)[C@H](CCC(N)=O)NC1=O — AUC(0-t) (microdialysis, radioimmunoassay; C57BL/6J male mice, wild type, amygdala extracellular fluid; intranasal, 12 µg, total area from zero): 249 ± 69 pg·30 min/sample
OCCc1ccc(O)c(O)c1 — AUC(0-t) (female C57BL/6J mice, brain; oral, 200 mg/kg, 0 to 12 h, low-fat diet): 0.014 ± 0.002 nmol·min/g
CC[C@H](C)[C@H](NC(=O)[C@H](CCC(=O)O)NC(=O)[C@H](CO)NC(=O)[C@@H](NC(=O)[C@@H](N)CO)C(C)C)C(=O)N[C@@H](CCC(N)=O)C(=O)N[C@@H](CC(C)C)C(=O)N[C@@H](CCSC)C(=O)N[C@@H](Cc1cnc[nH]1)C(=O)N[C@@H](CC(N)=O)C(=O)N[C@@H](CC(C)C)C(=O)NCC(=O)N[C@@H](CCCCN)C(=O)N[C@@H](Cc1cnc[nH]1)C(=O)N[C@@H](CC(C)C)C(=O)N[C@@H](CC(N)=O)C(=O)N[C@@H](CO)C(=O)N[C@@H](CCSC)C(=O)N[C@@H](CCC(=O)O)C(=O)N[C@@H](CCCN=C(N)N)C(=O)N[C@H](C(=O)N[C@@H](CCC(=O)O)C(=O)N[C@@H](Cc1c[nH]c2ccccc12)C(=O)N[C@@H](CC(C)C)C(=O)N[C@@H](CCCN=C(N)N)C(=O)N[C@@H](CCCCN)C(=O)N[C@@H](CCCCN)C(=O)N[C@@H](CC(C)C)C(=O)N[C@@H](CCC(N)=O)C(=O)N[C@@H](CC(=O)O)C(=O)N[C@H](C(=O)N[C@@H](Cc1cnc[nH]1)C(=O)N[C@@H](CC(N)=O)C(=O)N[C@@H](Cc1ccccc1)C(=O)O)C(C)C)C(C)C — remaining intact compound (Serine protease 1 (PRSS1, Bos taurus, UniProt P00760); substrate, HPLC-UV; Tris buffer; 10 min, pH 6.5, 37 °C, with: bovine trypsin 0.5 mg, no SBTI): 0%
O=C(c1ccoc1)N1CCN(c2cc(-c3ccncc3)nc3cc(-c4cccc(Cl)c4)nn23)CC1 — IC50 (ABCG2; JC-1 dye efflux, inhibitor, flow cytometry; ABCG2-overexpressing cells; with: JC-1 1 µM): 1460 ± 350 nM
CCCCCCCCCCCCCCCCN(C)C — intrinsic clearance in vitro (Oncorhynchus mykiss; liver S9 substrate depletion; rainbow trout liver S9; tested individually): 0.691 mL/h/mg S9 protein
C=CC(=O)N1CCC([C@@H]2CCNc3c(C(N)=O)c(-c4ccc(Oc5ccccc5)cc4)nn32)CC1 — remaining activity (ABCG2; transport, item: Lucifer Yellow uptake; membrane vesicles; 0.05 µM; baseline: vehicle): 93 ± 17%
COc1cc(CCC(C)=O)ccc1O — AUC(0-t) (male C57BL/6J mice, brain; oral, 200 mg/kg, 0 to 12 h, low-fat diet): 1.98 ± 0.16 nmol·min/g
COc1cccc(-c2cc3nc(-c4ccccc4)cc(N4CCN(C(=O)c5ccco5)CC4)n3n2)c1 — IC50 (ABCG2; JC-1 dye efflux, inhibitor, flow cytometry; ABCG2-overexpressing cells; with: JC-1 1 µM): 1400 ± 320 nM

Repeated from above:
COc1cc(CCC(C)=O)ccc1O — AUC(0-t) (male C57BL/6J mice, brain; oral, 200 mg/kg, 0 to 12 h, low-fat diet): 1.98 ± 0.16 nmol·min/g
COc1cccc(-c2cc3nc(-c4ccccc4)cc(N4CCN(C(=O)c5ccco5)CC4)n3n2)c1 — IC50 (ABCG2; JC-1 dye efflux, inhibitor, flow cytometry; ABCG2-overexpressing cells; with: JC-1 1 µM): 1400 ± 320 nM
